Experimental data from different studies.
± marks the error that the study gave.

Compound | test | system | setting | how to read | quantity | value
COc1cc2ncnc(Oc3cccc(N[11C](=O)Nc4cc(C(C)(C)C(F)(F)F)on4)c3)c2cc1OC |  | female Balb/c nude mice, plasma | intravenous, 30 min | relative to: radioactivity | intact fraction | 12.2 ± 0.45%
CC[C@@H]1C[C@]1(NC(=O)[C@@H]1C[C@@]2(CN1C(=O)[C@@H](NC(=O)[C@@H](NC(=O)[C@@H]1CCCCN1C(C)C)C1CCCCC1)C(C)(C)C)C(C)(C)C21CCC1)C(=O)NS(=O)(=O)N1CCCC1 |  | human | oral, 50 mg, together with: ritonavir 100 mg simultaneously |  | subjects with abdominal pain | 0%
O=C(N=P12CN3CN(CN(C3)C1)C2)c1ccccn1.[Cl][Pt][Cl] | NMR | DMSO:water 50:50 |  |  | stability time | > 4 days
CC(C)C[C@@H]1NC(=O)[C@@H](Cc2c[nH]c3ccccc23)NC(=O)[C@H](CCCN)NC(=O)[C@@H](CO)NC(=O)[C@H](CCC(N)=O)NC(=O)[C@@H](CCC(=O)O)NC(=O)[C@H](CO)NC(=O)[C@@H](Cc2c[nH]c3ccccc23)NC1=O | haemolysis |  | 500 µM |  | haemolysis | 3%
COC(=O)C[C@](O)(CCCC(C)(C)OC(C)=O)C(=O)O[C@@H]1C(OC)=C[C@]23CCCN2CCc2cc4c(cc2[C@H]13)OCO4 |  | CD1 mouse, liver | oral, 1 mg/kg, 0.5 h |  | tissue concentration | 167 ng/mL
CC[C@@H](C)[C@@H](NC(=O)[C@@H](CCCCN)NC(=O)[C@H](NC(=O)[C@@H](Cc1c[nH]c2ccccc12)NC(=O)[C@@H](Cc1ccccc1)NC(=O)[C@@H](CCC(N)=O)NC(=O)[C@@H](CC(N)=O)NC(=O)[C@@H](CCCNC(=N)N)NC(=O)[C@@H](CCCNC(=N)N)NC(=O)[C@@H](CCSC)NC(=O)[C@@H](CCCCN)NC(=O)[C@@H](Cc1c[nH]c2ccccc12)NC(=O)[C@@H](CCCCN)NC(=O)[C@@H](CCCCN)NC(=O)CNC(=O)[C@@H](CCCCN)NC(=O)CNC(=O)[C@@H](CCC(N)=O)NC(=O)[C@@H](Cc1c[nH]cn1)NC(=O)[C@H](N)CCCNC(=N)N)[C@H](C)CC)C(=O)N[C@H](CCC(N)=O)C(=O)N[C@H](CCCNC(=N)N)C(=O)O | PAMPA | CF sputum layer | 2 mg/mL, 5 h, pH 7.4 |  | Papp | 2.55 ×10⁻⁶ cm/s
C[C@@H]1CC[C@H]2[C@@H](C)CO[C@@H]3O[C@@]4(C)CC[C@@H]1[C@]32OO4 | refers to: compound | rat, plasma | 50.0 ng/mL spiked, 24 h, autosampler at 4 °C |  | measured concentration | 46.7 ± 2.04 ng/mL
[11CH3]n1c(=O)n(CCCO)c(=O)c2c1nc(Oc1cccc(OC(F)(F)F)c1)n2Cc1ccc(Cl)cc1 | ex vivo biodistribution | Sprague Dawley rat, muscle | 5 min post injection |  | tracer uptake | 0.22 ± 0.06 %ID/g
CC(C)C[C@@H](N)C(=O)NCC(=O)N[C@H](C)C(=O)N[C@H](CO)C(=O)N[C@H](Cc1c[nH]c2ccccc12)C(=O)N[C@H](Cc1c[nH]cn1)C(=O)N[C@H](CCCNC(=N)N)C(=O)N1CCC[C@@H]1C(=O)N[C@H](CC(=O)O)C(=O)N[C@H](CCCCN)C(=O)N[C@H](CS)C(=O)N[C@H](CS)C(=O)N[C@H](CC(C)C)C(=O)NCC(=O)N[C@H](Cc1ccc(O)cc1)C(=O)N[C@H](CCC(N)=O)C(=O)N[C@H](CCCCN)C(=O)N[C@H](CCCNC(=N)N)C(=O)N1CCC[C@@H]1C(=O)N[C@H](CC(C)C)C(=O)N1CCC[C@@H]1C(N)=O | LC-MS/MS | rat plasma | 5000 ng/mL, -80 to 25 °C, 3 freeze-thaw cycles |  | measured concentration | 5530 ± 433 ng/mL
CC(C)[C@H](NC(=O)CNC(=O)[C@H](CCC(N)=O)NC(=O)[C@H](C)N)C(=O)O |  | human | 30 mg/kg thrice daily, 3 days |  | unlikely related or unrelated adverse events | 71.4%

Repeated from above:
Compound | test | system | setting | how to read | quantity | value
CC[C@@H](C)[C@@H](NC(=O)[C@@H](CCCCN)NC(=O)[C@H](NC(=O)[C@@H](Cc1c[nH]c2ccccc12)NC(=O)[C@@H](Cc1ccccc1)NC(=O)[C@@H](CCC(N)=O)NC(=O)[C@@H](CC(N)=O)NC(=O)[C@@H](CCCNC(=N)N)NC(=O)[C@@H](CCCNC(=N)N)NC(=O)[C@@H](CCSC)NC(=O)[C@@H](CCCCN)NC(=O)[C@@H](Cc1c[nH]c2ccccc12)NC(=O)[C@@H](CCCCN)NC(=O)[C@@H](CCCCN)NC(=O)CNC(=O)[C@@H](CCCCN)NC(=O)CNC(=O)[C@@H](CCC(N)=O)NC(=O)[C@@H](Cc1c[nH]cn1)NC(=O)[C@H](N)CCCNC(=N)N)[C@H](C)CC)C(=O)N[C@H](CCC(N)=O)C(=O)N[C@H](CCCNC(=N)N)C(=O)O | PAMPA | CF sputum layer | 2 mg/mL, 5 h, pH 7.4 |  | Papp | 2.55 ×10⁻⁶ cm/s
